Measurements of several laboratories.
A part holds a random share of what one study measured. Substitutions count along the parent as printed.

Block 1
Target: CREB3L3, bZIP domain (human)
Method: DHFR protein complementation
Matrix: yeast
Notes: single substitutions, most at no-binding floor
Relative to: wild-type JUN-FOS pair
Direction: higher = stronger binding
Starting sequence: JUN, bZIP domain (human); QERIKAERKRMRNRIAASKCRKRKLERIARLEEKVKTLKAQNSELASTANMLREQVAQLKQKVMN; partner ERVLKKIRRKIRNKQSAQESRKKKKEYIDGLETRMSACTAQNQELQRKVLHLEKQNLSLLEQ
Variant	binding fitness [natural log]
A29F	-1.51
R30I	-1.53
Q41V	-1.56
T48H	-1.5
T37W	-1.16
Q55P	-1.46
A46E	-1.48
Q41P	-1.48
E54H	-1.42
L59H	-1.52
R30C	-1.42
A46M	-1.38
L45A	-1.4
A46H	-1.56
V56A	-1.51
K39W	-1.52
T48P	-1.53
A57V	-1.25

Block 2
Target: Fragile X messenger ribonucleoprotein 1, C-terminal low-complexity region (Fmr1, Mus musculus, UniProt P35922)
Method: RNA Bind-n-Seq
Form: RNA
Matrix: in vitro
Tested at: 200 nM
Notes: whole 134-nt RNA, ends assumed
Together with: 150 mM LiCl
Relative to: input library
Direction: higher = stronger binding
Each molecule: 7-deaza-guanosine replaces G
Shared flanks, not repeated: GGGAGUUCUACAGUCCGACGAUC … UGGAAUUCUCGGGUGUCAAGG
Sequence	log2 enrichment
AAGUCCUGUGCUACACAUCGUAUGUACCGAAUCGGGGUGGGGAAAGGGGAAAGGGGAAAGUAUUAUGUUACGCCGUUCGGAUCUGCACUU	-0.115
CACAGACAACACGCACCCACACAGACACAGAGGGAAGGGGUUGGGAUGGGGACAGGGUGCACAGCAGGGCGGGGUAGUACCCCAGCCCCU	1.38
UCCUGUGCUACACAUCGUAUGUACCGAAUCGGGAAAAAAGGGGAAAAAAGGAAAAAAGGGAAAGUAUUAUGUUACGCCGUUCGGAUCUGC	-0.175
ACCAUGCAGGUGGGCAUCUUUGGGAAGUGGGGCAAGGGGGGGAUAGGGAGGGGGGUAACACUUUGGGAACAGGAAAUCCCAGGUCGUUUC	1.55
CCUGUGCUACACAUCGUAUGUACCGAAUCAAAUUUUUAAAUUUUUUUAAAUUUUUUUAAAAAAGUAUUAUGUUACGCCGUUCGGAUCUGC	-2.49
UCAAGUCCUGUGCUACACAUCGUAUGUACCGAAUCGGAAAGGUUUGGUUUUUGGAAAGUAUUAUGUUACGCCGUUCGGAUCUGCACUUCC	-0.976
CCUGUGCUACACAUCGUAUGUACCGAAUCAAACCCCCCCAAACCCCCAAAUUUUUUUAAAAAAGUAUUAUGUUACGCCGUUCGGAUCUGC	1.41
UUCGACGGCGCCGGGCGAGUGGCUGUUGAGCGGCGCCGCGGGAGUUCCGCAGGUUUCCCGUGUUCGCAGCGGAGCCGGAGGCCAGCUGAA	-3.68
UUCUCUUCACUCCCACCAGUGCGGGUGGUCUUUGCAGUGACUAUGGAAGGCAGUGCACGGAAAGUCAUCACUGUCCGGUCAGCCCUCAUU	0.126
UAACUUUAGAGGAGGAUCUGAUGGAUAUAGCAGUGGACGUGGAUUUGGGGAUGGCUAUAAUGGGUAUGGAGGAGGACCUGGAGGUGGCAA	0.48
CACAGACAACACGCACCCACACAGACACAGAGGGAAGGGGUUGGGAUGGGGACAGGGUGCACGGCAGGGCGGGGUAGGACCCCAGCCCCU	-0.423

Block 3
Target: RNA binding protein fox-1 homolog 2, RRM domain, GST-SBP tag (RBFOX2, Homo sapiens, UniProt O43251-10, residues 100-194)
Method: RNA Bind-n-Seq
Form: RNA
Matrix: in vitro
Tested at: 365 nM
Notes: natural RNA segment, single round, ends assumed
Relative to: no-protein control
Direction: higher = stronger binding
Shared flanks, not repeated: GGGAGUUCUACAGUCCGACGAUC … UGGAAUUCUCGGGUGCCAA
Target sequence (chain): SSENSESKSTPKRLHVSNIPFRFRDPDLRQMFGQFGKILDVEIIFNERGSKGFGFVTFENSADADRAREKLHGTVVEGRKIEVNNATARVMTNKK
Sequence	RBNS enrichment (R)
UAGUGUUACACUGGUUCUGGAGUGUCUCUGCGGUACAAAGAUGCACUUUUCUUCAUGGGGCAAAGUCUGCCUCUUCUGCCAGGCAGUUCCCAUUUGCCCCUGUCCAGACU	0.221
ACUCUAGGGCCAGACCACUCUCUGUAUGGACCAGACCAUCUUCCCAAACCCAUGGUGCUUUCCCCCCGACCCCACUCAACCUACAUUCUGAGGAGGGGAGGGAUGGAUCA	0.269
ACUGUUGCCCUCUCUGUGUCUGCACACAUAAUGCCUCUCUCACUUUGGUGAAAUAUCAAAAAAAUGCAAGUACAGCAUGCAUAUUUAAGAAUUUCUGAACUAACACUUGA	1.51
AUGUGUGUCCCAAGGAAAUCCCUGUAAAUUUAACUCACCUACAAAAGGCUUUUUCCCCGCCUUUGGUUGUUAACGGCAUUCCUGAAAGCCACAUGUGUUUAUUCAUUGGG	0.346
GGACCCUGCUUUUUCCAGGGGCCGAGGGGCUGCCUUUCCUUUGUGUGUAUUAAGCUUUUCAAACAAUGGAGGGGAUGGAGAGCCCUGGUGUCCUGACGGGAGCCAGGUCG	0.306
UUCAAUGGUGCUUAUUAGAAGAAGUUUUUUCAUCUUGUCAUUUUAAGAAAAUAAAACUGGAAAUUGAAUAUGGGUGGCAUGAUUGUACCCUUUUAGUUCUCUUAUUUUUC	6.87
UUCCUCACCUGCCCCUGCCCUACCUUACACCCCCAGCUUGACUUCUUUCCAGUCCACGUGUGUAUAUAAUGAUAUCUAUAUUUUUGCCCAGGUCUGGGUAUUGCUCCUGC	0.838
AACAGUGUGGUUGAAUACAUUUAAUGCCAGCCAUUGGAAACUAGUUUUAGGCAACCACUCUCAAAAACAGCUUUAGAAUUUAUGCCCAGUUUUCUUGCAUUGAAAGAUAA	0.253
CGAGCGGGAUCUUGAUCAUGGGGCUGGUGUAUGGAUCCACCGUCGGAUUCCGUCUGCAGAGGAGGACGUAGGGGGCCGUCACACCCACCAGGCCUCCCUGCUGUGCUUUA	1.05
GCCCUCUUGCCUGUCAUCCCAACCCUGCUGCUUCUCUGUAAAAGGUUGUUUCUUUACUAGCAGAAAUCAGUCUGCAGGGAGGGGUAGUGCGUGUAUCUCACUGUUUUCCG	1.04
AAAAGAAGCAAACAGCGUUCAUUUCUGCUCCUGUAAUGGAGAAACAGCCAGCUCCCCUGCAUCCCUUACAGCCAACAGCUCCCUUCAGGCUUAGAGCAGGGGGAAUGGCA	0.811
CCUCCUGCAGUACCCACACCAUCACCACUGCUUUCUCUUCCAACAGUGAUCUGUAUUCUUAGUUUCAUUAUUUUCUUUUGAUUGAUAUGACACUAUAUAAAAUUUUCAUU	0.683

Block 4
Target: CCNA1, cyclin fold, Cln2 fusion (human)
Method: yeast growth competition, sequencing
Matrix: yeast
Notes: weak parent motif
Relative to: not given
Direction: higher = stronger binding
Starting sequence: WEE1 docking peptide (human); HKTFRKLRLFDTP; partner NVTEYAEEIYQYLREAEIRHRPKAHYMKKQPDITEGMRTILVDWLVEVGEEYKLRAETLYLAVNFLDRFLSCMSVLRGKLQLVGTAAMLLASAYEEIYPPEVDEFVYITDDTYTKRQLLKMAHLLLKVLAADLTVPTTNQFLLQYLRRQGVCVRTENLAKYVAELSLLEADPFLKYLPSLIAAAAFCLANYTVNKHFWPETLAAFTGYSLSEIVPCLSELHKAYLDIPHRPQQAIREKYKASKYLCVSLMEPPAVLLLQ
Variant	normalised enrichment score
R8Y	0.712
P13A	0.171
R5A L7A	0.217
F4E	0.194
T3V	0.578
D11I	-0.191
H1A	0.298
T12S	0.754
L7N	0.31
H1I	0.632
T3W	-0.146
L9C	0.278
K6V	0.105
R5F	0.0623
K2F	-0.0455
K2G	0.204
L7H	0.127
H1L	0.0643
D11P	0.315
H1T	0.548
F4Q	0.578
D11H	-0.525
R8L	-0.0536
P13L	0.00483
T12R	0.338

Block 5
Target: CEP164, C-terminal peptide (human)
Method: DHFR complementation, deep sequencing
Matrix: yeast
Notes: single substitutions, model-inferred values
Relative to: wild type
Direction: higher = weaker binding
Starting sequence: PDZK1, PDZ domain 2 (human); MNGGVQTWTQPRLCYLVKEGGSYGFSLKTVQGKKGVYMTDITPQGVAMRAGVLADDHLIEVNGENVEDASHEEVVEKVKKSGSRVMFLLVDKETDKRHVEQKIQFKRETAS; partner HNRVKVYRF
Variant	binding free energy change [kcal/mol]
G63R	0.21
D55T	0.733
R49L	0.325
V36D	1.45
E73F	0.0422
D95N	-0.094
P43N	0.178
Y37E	1.63
V85F	2.14
Q6H	-0.0549
K18R	-0.192
T7A	-0.0272
E73Q	0.0978
T9P	-0.0565
D56H	0.579
F105S	-0.135
E100L	-0.076
E73H	0.0242

Some of these lines once more (block 5):
Variant	binding free energy change [kcal/mol]
V36D	1.45
K18R	-0.192
D56H	0.579
E73Q	0.0978
F105S	-0.135
E73H	0.0242
D95N	-0.094
E73F	0.0422
E100L	-0.076
V85F	2.14
T7A	-0.0272
